# Published values of several laboratories.
# Each line is one published result; not all experiments were run side by side. ± marks the error that the study gave.
SMILES,target or system,test,test system,setting,scale,quantity,value
O=S(=O)(c1ccc(-c2ccc3ncnc(Nc4ccc(OCc5ccccc5F)c(Cl)c4)c3c2)cc1)N1CCOCC1,Leishmania major,"parasite growth, resazurin",,promastigote,,EC50,0.71 µM
CC(C)n1ncc2c(C(=O)NCC3CNC3)cc(C3CC3)nc21,Enterovirus D68,viral replication,"RD, US/MO/14-18947",100 nM,,plaque reduction,0%
Cc1c(CN(C)C(=O)/C=C/c2cnc3c(c2)CC(N)C(=O)N3)oc2ccccc12 (stereo not drawn),Escherichia coli,broth microdilution,AR-0137,,,MIC,8 µg/mL
O=S(=O)(c1ccc(-c2ccc3ncnc(Nc4ccccc4)c3c2)cc1)N1CCOCC1,Leishmania major,"parasite growth, resazurin",,promastigote,,EC50,> 4 µM
COc1ccc(NC(=O)CSc2nc3c(oc4ccccc43)c(=O)n2Cc2ccco2)cc1Cl,Mus musculus,"gene silencing, high-content imaging",LDR reporter GFP cells,retest run 1,,AC50,10 µM
C=C(NC(=O)c1csc(-c2nc3c(cc2O)-c2nc(cs2)C(=O)NC(C(C)O)C(=O)NC(=C(C)OC)c2nc(cs2)C(=O)NC2c4nc(cs4)C(=O)NC(COC(=O)c4c5c6c(cccc6n4O)COC(=O)C(OC4CC(C)(O)C(N(C)C)C(C)O4)C2OC5)c2nc-3cs2)n1)C(N)=O (stereo not drawn),Streptococcus pneumoniae,broth microdilution,penicillin-resistant isolates,,,MIC50,0.0078 µg/mL
CC(C)(C)NCC(SS(=O)(=O)O)c1ccccc1 (stereo not drawn),Schistosoma mansoni,,mice,"100 mg/kg, perfusion day 56",,female worms recovered,0 worms per mouse
C[n+]1cccc2cc(/C=N/NC(=O)c3cc(C(=O)N/N=C/c4ccc5c(ccc[n+]5C)c4)ncn3)ccc21,hp2 hairpin duplex DNA,FRET melting,,1 µM,,ΔTm,1.1 ± 0.7 °C
COc1cccc(/C=N/Nc2nc(Nc3ccccc3)nc(-n3nc(C)cc3C)n2)c1O,Mus musculus,"gene silencing, high-content imaging",LDR reporter GFP cells,retest run 1,,AC50,5.01 µM
CC(C)n1ncc2c(C(=O)NC[C@@H](C)N)cc(C3CC3)nc21,Enterovirus D68,viral replication,"RD, US/MO/14-18947",10 nM,,plaque reduction,0%
O=[N+]([O-])C(=C\Nc1ccccc1O)/C=N/c1ccccc1O,Mus musculus,"gene silencing, high-content imaging",LDR reporter GFP cells,"retest, mean of two runs",,EC50,12.6 µM
O=S(=O)(c1ccc(-c2ccc3ncnc(Nc4ccc(OCc5cccc(F)c5)c(Cl)c4)c3c2)cc1)N1CCOCC1,Leishmania major,"parasite growth, resazurin",,promastigote,,EC50,1.6 µM
N=C(S)N/N=C/c1ncc(C(F)(F)F)cc1Cl,Mus musculus,"gene silencing, high-content imaging",LDR reporter GFP cells,"30 h, retest run 1",,Emax,82%
COc1ccc(Nc2ncnc3ccc(-c4ccc(S(=O)(=O)N5CCN(C)CC5)cc4)cc23)cc1Cl,Leishmania major,"parasite growth, resazurin",,promastigote,,EC50,5.9 µM
C[n+]1ccc(/C=N/NC(=O)c2cccc(C(=O)N/N=C/c3cc[n+](C)c4ccccc34)c2)c2ccccc21,MYC parallel G4 DNA,FRET melting,,"1 µM, DNA 0.2 µM, together with: duplex DNA competitor 10 µM",,ΔTm,4.6 ± 0.2 °C
CN(C)CCNC(=O)c1cccn2c(=O)c3cc4ccccc4cc3nc12,Trypanosoma brucei,RNA-seq,Lister 427 bloodstream form,"2 × EC50, 4 h, ChIP-seq G4 peak overlap",,upregulated G4-containing genes,2 genes
COC1CN([C@H]2CC[C@H]([C@@]3(C)Oc4c(Cl)cc(C(=O)NCc5c(SC)cc(C)[nH]c5=O)c(C)c4O3)CC2)C1,,"RNA-seq, item: MDK","human, whole blood","dose not given, 24 h",reference: pretreatment baseline,log2 fold change,1.18
C(=N\Nc1nc(-c2ccccn2)nc2ccccc12)/c1ccccc1,Mus musculus,"gene silencing, high-content imaging",LDR reporter GFP cells,"30 h, retest run 2",,Emax,117%
O=S(=O)(c1ccc(-c2ccc3ncnc(Nc4ccc(OCc5cccc(Br)c5)c(Cl)c4)c3c2)cc1)N1CCOCC1,Leishmania major,"parasite growth, resazurin",,promastigote,,EC50,> 15 µM
O=C(N/N=C/c1ccccn1)c1cc(-c2ccc(Cl)cc2)nc2ccccc12,Mus musculus,"gene silencing, high-content imaging",LDR reporter GFP cells,"30 h, retest, mean of two runs",,Emax,90%
Cc1cc(-c2ccc3ncnc(Nc4ccc(OCc5cccc(F)c5)c(Cl)c4)c3c2)cnc1N1CCOCC1,Leishmania major,"parasite growth, resazurin",,promastigote,,EC50,3.6 µM

# A few entries again:
SMILES,target or system,test,test system,setting,scale,quantity,value
O=S(=O)(c1ccc(-c2ccc3ncnc(Nc4ccccc4)c3c2)cc1)N1CCOCC1,Leishmania major,"parasite growth, resazurin",,promastigote,,EC50,> 4 µM
COc1ccc(NC(=O)CSc2nc3c(oc4ccccc43)c(=O)n2Cc2ccco2)cc1Cl,Mus musculus,"gene silencing, high-content imaging",LDR reporter GFP cells,retest run 1,,AC50,10 µM
